Results gathered from unrelated publications.
A part holds a random share of what one study measured. Substitutions count along the parent as printed.

Sample 1
Target: RNA binding protein fox-1 homolog 2, RRM domain, GST-SBP tag (RBFOX2, Homo sapiens, UniProt O43251-10, residues 100-194)
Method: RNA Bind-n-Seq
Form: RNA
Sample: in vitro
Concentration: 365 nM
Setting: natural RNA segment, single round, ends assumed
Relative to: no-protein control
Direction: higher = stronger binding
All sequences stand within: GGGAGUUCUACAGUCCGACGAUC … UGGAAUUCUCGGGUGCCAA
Target sequence (chain): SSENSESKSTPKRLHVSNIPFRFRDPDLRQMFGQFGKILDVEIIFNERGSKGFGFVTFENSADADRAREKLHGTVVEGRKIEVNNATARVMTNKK
| Strand | RBNS enrichment (R) |
| --- | --- |
| UAUUAGAAUGCUGACCUUUCAUAUGGAUUAUUGUGAGUCAUCAGAGUUUAUUAUAACUUAUUGUUCAUAUUCAUUUCUAAGUUAAUUUAAGUAAUCAUUUAUUAAGACAG | 0.466 |
| CAACUUUGUGAUAUGGUCAAGCUCCCGUUUAAGAAAUGGGAGUCUGUUGUUGCAGAUCAGUAAUUGUGCCUAAAAGAGACAGAAGUGAAAAAGAGACAAGCUCUGAGGGC | 0.45 |
| ACUUUUUGGUGGCAUUUGUAAAAGCUGAUAUAAAAGGCUCUGAGAUGUUAUUUUCAGUUAUUCCAUAGGCAAGCCUUUUUACAGAGCAUAUGUCUCCAGUUGGCAGCUUG | 0.671 |
| UUUUUAUAUUUUUCAAUGCAUUUAAUUAUCUUUUUUAUAAUUCUUUGUACUAACUCAGCAUGUAACAACCAAUUUACAUGGAAAUAAAUCGAAAUAUGAUAACUAUUAUG | 0.731 |
| UCCACCCUGAUCUGGCCCCUGUUAGCCCAUGAGCCCUCUUUAUGUACCCAUCCUCCCUUUCUGAACCUUCCCUCAGGGUGGGGCUGGAUUAUGGAGGAAGGAAUGGAUCU | 0.268 |
| UAUAAGAUUUGAGGUCAGCCAUCUUCAAAAAAGAAAAAAAAAUUGACUCAAGAAAGUACAAGUAAACUAUACACCUUUUUUUCAUAAGUUUUAGGAACUGUAGUAAUGUG | 0.531 |
| CUUGGGGCAGACCAUUCGUUUAUUUAGAGAAGAGCUAUACAUUCUUCUUUCUGGUCCCAUCUUAAACGUCUUCUGUUGUGCUGCACCCCAGAUGGUGUCUCAGAUGCUUU | 0.367 |
| GCUUGUGACGAAUGAAUCUUGCAUUUUUUAGUGAUCGGAGAAGGGAUGGAUCAUAGGAUUCUGAUUUUAUGUGAAAUUUUGUCUAAUUCAUUAAAGCAGUUGCUUUUCCU | 1.05 |

Sample 2
Target: Histone acetyltransferase KAT6A, winged helix 2, GST fusion (KAT6A, Homo sapiens, UniProt Q92794, residues 85-181)
Method: protein binding microarray
Form: double-stranded DNA, one strand shown
Sample: in vitro
Concentration: not given
Setting: 8-mer, flanks averaged, mean of 2 arrays, mostly near background
Relative to: not given
Direction: higher = stronger binding
Target sequence (chain): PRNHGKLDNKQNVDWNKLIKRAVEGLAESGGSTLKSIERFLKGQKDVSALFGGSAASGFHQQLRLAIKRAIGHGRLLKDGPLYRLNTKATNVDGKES
| Strand | E-score |
| --- | --- |
| AAAGCTCC | 0.0484 |
| TAGCCACA | 0.0335 |
| ACTCATCA | -0.101 |
| CCGGTTCA | 0.0104 |
| AATGGCGT | -0.018 |
| ATAGGTTA | -0.124 |
| GTGTTTCA | 0.0561 |

Sample 3
Target: CCNA1, cyclin fold, Cln2 fusion (human)
Method: yeast growth competition, sequencing
Sample: yeast
Setting: weak parent motif
Relative to: not given
Direction: higher = stronger binding
Starting sequence: PKN2 docking peptide (human); VSAVRKLDFSDTM; partner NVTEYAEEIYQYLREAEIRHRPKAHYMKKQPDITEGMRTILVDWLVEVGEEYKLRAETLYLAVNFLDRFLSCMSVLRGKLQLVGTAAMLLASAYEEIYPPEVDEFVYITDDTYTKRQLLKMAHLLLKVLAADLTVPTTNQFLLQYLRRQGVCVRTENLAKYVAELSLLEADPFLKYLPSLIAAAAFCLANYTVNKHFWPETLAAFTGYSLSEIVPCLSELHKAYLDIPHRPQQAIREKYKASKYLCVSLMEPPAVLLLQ
| Substitution | normalised enrichment score |
| --- | --- |
| VSAVRKLDFSCTM [D11C] | 0.828 |
| VSAVRKLDFSRTM [D11R] | 0.466 |
| VSAVRKLQFSDTM [D8Q] | 0.458 |
| VSALRKLDFSDTM [V4L] | 0.532 |
| VHAVRKLDFSDTM [S2H] | 1.01 |
| VSAVRKLDNSDTM [F9N] | 0.025 |
| VSAVRKLDQSDTM [F9Q] | -0.0894 |
| VSAVRKSDFSDTM [L7S] | 0.145 |
| VSAVRPLDFSDTM [K6P] | -0.485 |

Further values, each from its own experiment
| Molecule | target | assay | test system | setting | how to read | measurement | result |
| --- | --- | --- | --- | --- | --- | --- | --- |
| PhoQ, residues 284 288 289 292 302 303 GANMMA | PhoP, residues 12 14 15 18 19 TQAIL (Escherichia coli, UniProt P23836) | Sort-seq, item: YFP reporter | E. coli | PhoQ-PhoP variant library, together with: 10 µM Mg2+ | relative to: high Mg2+ state, higher = stronger signaling | fold induction | 3.58 |

Some of these lines once more (sample 1):
| Strand | RBNS enrichment (R) |
| --- | --- |
| ACUUUUUGGUGGCAUUUGUAAAAGCUGAUAUAAAAGGCUCUGAGAUGUUAUUUUCAGUUAUUCCAUAGGCAAGCCUUUUUACAGAGCAUAUGUCUCCAGUUGGCAGCUUG | 0.671 |
| UUUUUAUAUUUUUCAAUGCAUUUAAUUAUCUUUUUUAUAAUUCUUUGUACUAACUCAGCAUGUAACAACCAAUUUACAUGGAAAUAAAUCGAAAUAUGAUAACUAUUAUG | 0.731 |
| UCCACCCUGAUCUGGCCCCUGUUAGCCCAUGAGCCCUCUUUAUGUACCCAUCCUCCCUUUCUGAACCUUCCCUCAGGGUGGGGCUGGAUUAUGGAGGAAGGAAUGGAUCU | 0.268 |
| UAUAAGAUUUGAGGUCAGCCAUCUUCAAAAAAGAAAAAAAAAUUGACUCAAGAAAGUACAAGUAAACUAUACACCUUUUUUUCAUAAGUUUUAGGAACUGUAGUAAUGUG | 0.531 |
